# Earlier results, collected from citations in different studies.
# Protocols differ between the studies behind these lines. ± marks the error that the study gave. Ends that are not written are not given here.
# Melanocortin receptor 4: Melanocortin receptor 4 (Mus musculus, UniProt P56450)
# Chain of UniProt P56450 (whole entry, looked up): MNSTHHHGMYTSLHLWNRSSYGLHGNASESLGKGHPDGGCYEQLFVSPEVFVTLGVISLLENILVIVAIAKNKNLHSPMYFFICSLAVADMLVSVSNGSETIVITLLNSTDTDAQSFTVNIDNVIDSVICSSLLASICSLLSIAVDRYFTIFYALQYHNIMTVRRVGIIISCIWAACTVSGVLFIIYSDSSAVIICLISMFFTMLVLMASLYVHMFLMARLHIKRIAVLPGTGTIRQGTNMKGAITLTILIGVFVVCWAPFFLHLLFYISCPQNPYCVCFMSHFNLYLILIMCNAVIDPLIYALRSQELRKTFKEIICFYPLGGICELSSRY
# B1: human myelin basic protein; sequence looked up; chain MGNHAGKRELNAEKASTNSETNRGESEKKRNLGELSRTTSEDNEVFGEADANQNNGTSSQDTAVTDSKRTADPKNAWQDAHPADPGSRPHLIRLFSRDAPGREDNTFKDRPSESDELQTIQEDSAATSESLDVMASQKRPSQRHGSKYLATASTMDHARHGFLPRHRDTGILDSIGRFFGGDRGAPKRGSGKDSHHPARTAHYGSLPQKSHGRTQDENPVVHFFKNIVTPRTPPPSQGKGRGLSLSRFSWGAEGQRPGFGYGGRASDYKSAHKGFKGVDAQGTLSKIFKLGGRDSRSGSPMARR
# B2: recombinant human GDNF; sequence looked up; chain SPDKQMAVLPRRERNRQAAAANPENSRGKGRRGQRGKNRGCVLTAIHLNVTDLGLGYETKEELIFRYCSGSCDAAETTYDKILKNLSRNRRLVSDKVGQACCRPIAFDDDLSFLDDNLVYHILRKHSAKRCGCI
# Chain of UniProt P07949 (whole entry, looked up): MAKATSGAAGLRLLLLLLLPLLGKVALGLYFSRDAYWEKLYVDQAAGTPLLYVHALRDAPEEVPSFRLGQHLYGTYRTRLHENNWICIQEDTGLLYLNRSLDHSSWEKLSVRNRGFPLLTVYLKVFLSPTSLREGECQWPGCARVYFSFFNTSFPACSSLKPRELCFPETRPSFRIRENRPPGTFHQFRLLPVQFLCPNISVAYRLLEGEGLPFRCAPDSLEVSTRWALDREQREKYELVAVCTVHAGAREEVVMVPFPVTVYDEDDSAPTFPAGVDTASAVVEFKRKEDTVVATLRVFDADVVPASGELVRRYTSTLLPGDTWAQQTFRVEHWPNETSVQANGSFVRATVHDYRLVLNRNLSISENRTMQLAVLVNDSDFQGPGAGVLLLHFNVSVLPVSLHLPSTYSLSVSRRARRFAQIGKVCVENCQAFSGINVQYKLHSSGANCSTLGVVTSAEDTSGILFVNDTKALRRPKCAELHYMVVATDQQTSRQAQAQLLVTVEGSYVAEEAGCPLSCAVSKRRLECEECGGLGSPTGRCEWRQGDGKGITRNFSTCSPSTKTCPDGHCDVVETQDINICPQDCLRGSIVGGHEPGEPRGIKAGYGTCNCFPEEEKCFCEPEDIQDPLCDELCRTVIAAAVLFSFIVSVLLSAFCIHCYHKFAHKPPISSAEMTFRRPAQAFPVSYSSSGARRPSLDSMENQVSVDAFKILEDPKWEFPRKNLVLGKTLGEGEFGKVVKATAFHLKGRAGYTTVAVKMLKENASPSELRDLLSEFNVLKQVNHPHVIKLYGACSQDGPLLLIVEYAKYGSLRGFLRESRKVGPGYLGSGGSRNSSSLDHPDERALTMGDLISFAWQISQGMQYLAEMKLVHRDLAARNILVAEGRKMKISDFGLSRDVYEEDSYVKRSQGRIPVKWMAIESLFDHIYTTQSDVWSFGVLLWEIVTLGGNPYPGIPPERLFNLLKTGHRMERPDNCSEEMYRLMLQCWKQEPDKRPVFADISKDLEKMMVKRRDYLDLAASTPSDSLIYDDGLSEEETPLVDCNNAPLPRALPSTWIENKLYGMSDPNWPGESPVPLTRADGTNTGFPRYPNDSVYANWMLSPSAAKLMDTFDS
# Chain of UniProt P02730 (whole entry, looked up): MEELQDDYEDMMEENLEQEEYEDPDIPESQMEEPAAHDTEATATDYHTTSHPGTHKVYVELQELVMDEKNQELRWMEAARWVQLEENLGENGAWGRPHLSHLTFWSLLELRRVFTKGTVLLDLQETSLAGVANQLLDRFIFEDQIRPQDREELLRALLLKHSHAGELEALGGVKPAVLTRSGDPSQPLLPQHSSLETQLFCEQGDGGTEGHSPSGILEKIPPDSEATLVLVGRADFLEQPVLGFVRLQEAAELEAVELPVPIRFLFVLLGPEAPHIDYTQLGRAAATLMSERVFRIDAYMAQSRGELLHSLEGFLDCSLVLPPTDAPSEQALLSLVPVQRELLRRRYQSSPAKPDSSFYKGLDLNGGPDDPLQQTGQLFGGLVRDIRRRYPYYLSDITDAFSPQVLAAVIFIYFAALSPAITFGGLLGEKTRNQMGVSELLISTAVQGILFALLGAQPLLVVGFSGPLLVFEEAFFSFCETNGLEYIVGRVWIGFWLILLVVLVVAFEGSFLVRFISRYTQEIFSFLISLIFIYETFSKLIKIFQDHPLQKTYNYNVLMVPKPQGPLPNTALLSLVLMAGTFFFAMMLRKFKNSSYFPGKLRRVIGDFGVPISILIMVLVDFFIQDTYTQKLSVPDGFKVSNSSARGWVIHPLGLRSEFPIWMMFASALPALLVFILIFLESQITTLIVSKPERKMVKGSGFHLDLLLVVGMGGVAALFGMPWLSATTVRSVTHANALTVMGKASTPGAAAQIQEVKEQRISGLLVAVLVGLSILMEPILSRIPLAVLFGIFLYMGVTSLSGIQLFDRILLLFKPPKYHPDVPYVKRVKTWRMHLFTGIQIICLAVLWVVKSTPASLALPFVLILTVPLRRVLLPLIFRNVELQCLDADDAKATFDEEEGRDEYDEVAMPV
# Chain of UniProt P00698 (whole entry, looked up): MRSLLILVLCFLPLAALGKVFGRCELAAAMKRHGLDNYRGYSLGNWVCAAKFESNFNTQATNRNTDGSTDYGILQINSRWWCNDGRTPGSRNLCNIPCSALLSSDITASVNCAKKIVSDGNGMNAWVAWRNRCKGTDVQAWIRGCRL
# Chain of UniProt P11632 (whole entry, looked up): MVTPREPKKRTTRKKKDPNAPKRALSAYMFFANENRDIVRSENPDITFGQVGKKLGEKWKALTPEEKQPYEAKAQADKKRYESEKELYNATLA
# Chain of UniProt D4Z2G1 (whole entry, looked up): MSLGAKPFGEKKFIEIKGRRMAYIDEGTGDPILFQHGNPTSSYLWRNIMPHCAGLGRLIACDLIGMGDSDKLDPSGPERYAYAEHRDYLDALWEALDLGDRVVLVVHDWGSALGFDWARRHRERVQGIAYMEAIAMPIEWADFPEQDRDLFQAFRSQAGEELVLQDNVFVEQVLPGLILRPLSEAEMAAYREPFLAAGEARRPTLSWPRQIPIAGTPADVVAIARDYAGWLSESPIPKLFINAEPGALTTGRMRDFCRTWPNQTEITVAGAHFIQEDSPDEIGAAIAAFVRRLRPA
# Chain of UniProt P0ACD4 (whole entry, looked up): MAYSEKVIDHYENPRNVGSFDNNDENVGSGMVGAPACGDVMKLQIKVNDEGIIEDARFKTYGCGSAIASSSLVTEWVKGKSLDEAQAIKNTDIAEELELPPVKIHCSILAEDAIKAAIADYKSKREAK
# Chain of UniProt P0AES9 (whole entry, looked up): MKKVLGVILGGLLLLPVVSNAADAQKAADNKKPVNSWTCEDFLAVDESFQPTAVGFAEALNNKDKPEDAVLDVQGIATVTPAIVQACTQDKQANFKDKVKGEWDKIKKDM
# Chain of UniProt P31749 (whole entry, looked up): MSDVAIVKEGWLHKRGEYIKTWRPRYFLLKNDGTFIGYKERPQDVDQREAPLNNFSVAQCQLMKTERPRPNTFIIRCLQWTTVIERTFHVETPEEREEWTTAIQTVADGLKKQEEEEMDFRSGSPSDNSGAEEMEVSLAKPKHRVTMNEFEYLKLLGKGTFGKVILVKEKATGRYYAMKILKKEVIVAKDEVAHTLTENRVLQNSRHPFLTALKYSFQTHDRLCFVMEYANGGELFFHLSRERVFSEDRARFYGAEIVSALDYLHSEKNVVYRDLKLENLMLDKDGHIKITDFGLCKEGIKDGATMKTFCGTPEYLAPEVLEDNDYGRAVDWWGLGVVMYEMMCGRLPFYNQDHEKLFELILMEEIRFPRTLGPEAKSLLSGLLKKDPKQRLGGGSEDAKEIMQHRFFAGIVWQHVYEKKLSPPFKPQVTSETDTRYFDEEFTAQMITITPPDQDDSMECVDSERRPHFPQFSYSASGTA
Substance,tested on,test,system,conditions,how to read,measurement,result
insulin glulisine,,item: total insulin,human,"subcutaneous thigh, 0.2 U/kg, dose-adjusted from 0.1 U/kg",,Cmax,0.684 nM
SSRRCVRLHESCLGQQVPCCDPCATCYCRFFNAFCYCRKLGTAMNPCSRT (agouti-related protein; ends and bridges not checked; cysteine pairing not given here; sequence looked up),Melanocortin receptor 4,,,,reference: mouse MC4R over mouse MC3R,potency ratio,~10 fold
VEGF,neuropilin-1,,,,,Kd,2 µM
AGTTGAGGGGACTTTCCCAGGC (dsDNA),"NHP6A 1-93 (Saccharomyces cerevisiae, UniProt P11632)",fluorescence anisotropy,"double-stranded DNA, one strand shown",,,Kd,0.01 µM
CCCCCCCCCCCCCCCCCCCCCCCCCC(=O)N[C@@H](CO[C@H]1O[C@H](CO)[C@H](O)[C@H](O)[C@H]1O)[C@H](O)[C@H](O)CCCCCCCCCCCCCC,"CD1d, mouse","binding, surface plasmon resonance",,,,Kd,0.34 µM
Nc1ncnc2c1ncn2[C@@H]1O[C@H](COP(=O)(O)OP(=O)(O)NP(=O)(O)O)[C@@H](O)[C@H]1O,CFTR NBD1,"binding, SPR or ITC",,,,Kd,11 ± 1.1 µM
O=[N+]([O-])c1ccc(Sc2nnc(COc3ccccc3)n2-c2ccccc2)c2ncccc12,Keap1 Kelch domain,"binding, SPR",,,,Kd,> 300 µM
Nc1nc2c(ncn2[C@@H]2O[C@H](COP(=O)(O)OP(=O)(O)O)[C@@H](O)[C@H]2O)c(=O)[nH]1,K-Ras,binding,,,,Kd,2.5e-06 µM
CC(=O)O[C@@]12CO[C@@H]1C[C@H](O)[C@@]1(C)C(=O)[C@H](O)C3=C(C)[C@@H](OC(=O)[C@H](O)[C@@H](NC(=O)OC(C)(C)C)c4ccccc4)C[C@@](O)([C@@H](OC(=O)c4ccccc4)[C@H]21)C3(C)C,tubulin,competition binding,cross-linked microtubules,added: Flutax-2,,Kd,0.017 µM
CCCCCCCl,"linB (Sphingobium indicum, UniProt D4Z2G1)","enzyme-substrate dissociation, substrate",,"pH 8.6, 37 °C",,Kd,240 µM
Nc1ncnc2c1ncn2[C@@H]1O[C@H](COP(=O)(O)OP(=O)(O)OP(=O)(O)O)[C@@H](O)[C@H]1O,CFTR NBD1,"binding, SPR or ITC",,,,Kd,2.4 ± 0.24 µM
"IscU apo (Escherichia coli, UniProt P0ACD4)",,"NMR, item: His105",,"NaCl 150 mM, D-state, apo",,pKa,6.5
O=C1Nc2ccc(Cl)cc2[C@@](C#CC2CC2)(C(F)(F)F)O1,HIV-1 reverse transcriptase,,,added: efavirenz,,Kd,0.15 µM
Cc1c(OCC(F)(F)F)ccnc1C[S+]([O-])c1nc2ccccc2[nH]1 (stereo not shown),heparin-induced tau filaments,radioligand binding,,,,Kd,0.0025 ± 0.0004 µM
infliximab,,,"human, rheumatoid arthritis, serum",,,trough level threshold for response,1 µg/mL
CCCC[N+](CCCC)(CCCC)Cc1ccc(C(=O)c2ccccc2)cc1,BK channel (open state),"channel block, blocker",,membrane potential 0 mV,,Kd,6 µM
dalotuzumab,IGF-1R,binding,,,,Kd,~0.001 µM
oxytocin,,,"rhesus monkey, cerebrospinal fluid","intranasal aerosol, 24 IU, 60 and 120 min",,CSF concentration,~70 pg/mL
Teicoplanin,albumin,binding,,,,Kd,41.5 µM
O=P(O)(O)OCC(O)CO (racemic),orotidine 5'-phosphate decarboxylase wild type,activator,,"pH 7.0, 25 °C, ionic strength 0.15 (NaCl), added: FO",,Kd,50000 µM
O=O,FixL,"binding, spectroscopy",,,,Kd,50 µM
B1 (human myelin basic protein),Aβ40 Dutch/Iowa peptide,SPR,,,,Kd,0.0169 ± 1.4e-11 µM
B2 (recombinant human GDNF),"RET (Homo sapiens, UniProt P07949)","RET phosphorylation, activator",,,,minimal effective concentration,≥ 50 ng/mL
c1c[nH]cn1,sperm whale metmyoglobin,binding,,pH 8,,Kd,14000 µM
CC(=O)O[C@H]1C(=O)[C@@]2(C)[C@H]([C@H](OC(=O)c3ccccc3)[C@]3(O)C[C@H](OC(=O)[C@H](O)[C@@H](NC(=O)c4ccccc4)c4ccccc4)C(C)=C1C3(C)C)[C@]1(OC(C)=O)CO[C@@H]1C[C@@H]2O,tubulin,binding to microtubules,,,,Kd,0.01 µM
"RXVF (N-acetyl, Abz residue, C-benzyl)","AKT1 (Homo sapiens, UniProt P31749)",inhibitor,,,,IC50,119 ± 36 µM
CC[C@]1(O)C[C@@H]2CN(CCc3c([nH]c4ccccc34)[C@@](C(=O)OC)(c3cc4c(cc3OC)N(C)[C@H]3[C@@](O)(C(=O)OC)[C@H](OC(C)=O)[C@]5(CC)C=CCN6CC[C@]43[C@@H]65)C2)C1,microtubules,,,high-affinity site,,Kd,~1.9 µM
CC(C)COCC(CN(Cc1ccccc1)c1ccccc1)N1CCCC1 (stereo not shown),cardiac troponin C N-domain,binding,,added: cardiac troponin I switch peptide,,Kd,80 µM
CC(C)CCC[C@@H](C)[C@H]1CC[C@H]2[C@@H]3CC=C4C[C@@H](O)CC[C@]4(C)[C@H]3CC[C@]12C,TSPO Rhodobacter sphaeroides wild type,,purified protein,,,Kd,~80 µM
"hdeA mature protein (Escherichia coli, UniProt P0AES9)",,"NMR, item: Asp83",,"298 K, numbering of the source",,pKa,3.97
Nc1ccn([C@H]2C[C@H](O)[C@@H](COP(=O)(O)NP(=O)(O)OP(=O)(O)O)O2)c(=O)n1,DNA polymerase beta,nucleotide insertion,,opposite templating guanosine,,Kd,1.7 ± 0.3 µM
CCCCNc1ccc(C(=O)OCCN(C)C)cc1,CNG channel,binding,,open channel state,,Kd,170 µM
O=P(O)(O)O[C@@H]1[C@H](O)[C@H](O)[C@@H](OP(=O)(O)O)[C@H](OP(=O)(O)O)[C@H]1O,IP3R1 N-terminal domain residues 1-604,"binding, FP competition",,"4 °C, after incubation at 37 °C",,Kd,0.086 ± 0.009 µM
"LYZ (Gallus gallus, UniProt P00698)",,"NMR, item: Asp119",,"NaCl 100 mM, numbering of the source",,pKa,3.5
CVRLHESCLGQQVPCCDPCATCYCRFFNAFCYCR (agouti-related protein (87–120); sequence looked up),Melanocortin receptor 4,"antagonist, cAMP",peptide,,,Ki,0.0032 µM
MKVIFLKDVKGKGKKGEIKNVA (rplI NTL9 residues 1-22 (Geobacillus stearothermophilus)),,"NMR, item: Asp8",peptide,,,pKa,3.66
[I-].[K+],"SLC4A1 (Homo sapiens, UniProt P02730)","Cl- exchange, noncompetitive inhibitor",,,,Kd,~60000 µM
